{"data": "Assay results from different studies", "note": "Each numbered part is a random draw from the data of one study; scales do not carry over between parts."}
{"data": "Series 1", "target": "Histone acetyltransferase KAT6A, winged helix 1, GST fusion (KAT6A, Homo sapiens, UniProt Q92794, residues 1-85)", "technique": "protein binding microarray", "form": "double-stranded DNA, one strand shown", "sample": "in vitro", "concentration": "not given", "setting": "8-mer, flanks averaged, mean of 2 arrays, mostly near background", "baseline": "not given", "direction": "higher = stronger binding", "Target sequence (chain)": "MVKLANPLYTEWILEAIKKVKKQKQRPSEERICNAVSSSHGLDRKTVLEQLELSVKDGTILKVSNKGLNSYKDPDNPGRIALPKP"}
{"Oligonucleotide": "CACGTCAG", "E-score": -0.174}
{"Oligonucleotide": "AAAAAAAC", "E-score": -0.101}
{"Oligonucleotide": "CGATGAGA", "E-score": -0.106}
{"Oligonucleotide": "CTGAGGCA", "E-score": -0.163}
{"Oligonucleotide": "GTGAACAA", "E-score": -0.0469}
{"Oligonucleotide": "CCGGTCCG", "E-score": 0.365}
{"data": "Series 2", "target": "Sal-like protein 4, full length isoform A (SALL4, Homo sapiens, UniProt Q9UJQ4, residues 1-1053)", "technique": "universal PBM", "form": "double-stranded DNA, one strand shown", "sample": "in vitro", "concentration": "600 nM", "setting": "8-mer, flanks averaged, mean of replicates", "direction": "higher = stronger binding", "chain of UniProt Q9UJQ4 (whole entry, looked up)": "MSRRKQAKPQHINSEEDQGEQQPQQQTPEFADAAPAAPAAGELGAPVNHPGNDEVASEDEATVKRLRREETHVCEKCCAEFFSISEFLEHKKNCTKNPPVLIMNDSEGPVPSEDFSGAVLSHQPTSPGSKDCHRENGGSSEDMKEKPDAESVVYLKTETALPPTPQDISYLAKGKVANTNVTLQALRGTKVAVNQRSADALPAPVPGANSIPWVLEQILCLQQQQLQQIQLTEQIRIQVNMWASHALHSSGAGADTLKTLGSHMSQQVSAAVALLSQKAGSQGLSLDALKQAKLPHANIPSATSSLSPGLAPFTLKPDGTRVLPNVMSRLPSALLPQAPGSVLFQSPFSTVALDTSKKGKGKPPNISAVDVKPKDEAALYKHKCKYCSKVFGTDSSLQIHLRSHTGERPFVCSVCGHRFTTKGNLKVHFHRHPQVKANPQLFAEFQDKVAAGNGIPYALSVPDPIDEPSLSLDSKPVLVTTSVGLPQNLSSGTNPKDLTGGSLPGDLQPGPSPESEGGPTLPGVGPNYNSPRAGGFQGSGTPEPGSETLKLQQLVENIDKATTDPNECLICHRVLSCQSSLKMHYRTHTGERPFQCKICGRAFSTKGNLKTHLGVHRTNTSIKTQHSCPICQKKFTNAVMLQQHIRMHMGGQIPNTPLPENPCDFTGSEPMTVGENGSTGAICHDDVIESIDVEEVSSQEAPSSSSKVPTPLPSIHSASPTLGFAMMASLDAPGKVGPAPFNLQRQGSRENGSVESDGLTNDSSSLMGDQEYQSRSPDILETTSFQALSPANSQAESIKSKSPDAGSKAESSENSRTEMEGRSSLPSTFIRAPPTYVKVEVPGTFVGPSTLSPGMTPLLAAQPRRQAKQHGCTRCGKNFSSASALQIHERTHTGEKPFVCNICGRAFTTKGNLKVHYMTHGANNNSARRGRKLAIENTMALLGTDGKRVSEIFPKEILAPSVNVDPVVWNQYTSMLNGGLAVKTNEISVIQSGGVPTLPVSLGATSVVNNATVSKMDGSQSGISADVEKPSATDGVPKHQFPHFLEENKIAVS"}
{"Oligonucleotide": "AGAACTAA", "E-score": 0.0939}
{"Oligonucleotide": "CGGGACCG", "E-score": -0.351}
{"Oligonucleotide": "TATAGGCA", "E-score": 0.198}
{"Oligonucleotide": "CCACAAGG", "E-score": -0.241}
{"Oligonucleotide": "ATGCGTGC", "E-score": 0.0359}
{"Oligonucleotide": "CCAGAATA", "E-score": 0.136}
{"data": "Series 3", "target": "Ras GTPase-activating protein-binding protein 1, full length (G3BP1, Homo sapiens, UniProt Q13283)", "technique": "RNA Bind-n-Seq", "form": "RNA", "sample": "in vitro", "concentration": "200 nM", "setting": "whole 134-nt RNA, ends assumed", "added": "150 mM KCl", "baseline": "input library", "direction": "higher = stronger binding", "chain of UniProt Q13283 (whole entry, looked up)": "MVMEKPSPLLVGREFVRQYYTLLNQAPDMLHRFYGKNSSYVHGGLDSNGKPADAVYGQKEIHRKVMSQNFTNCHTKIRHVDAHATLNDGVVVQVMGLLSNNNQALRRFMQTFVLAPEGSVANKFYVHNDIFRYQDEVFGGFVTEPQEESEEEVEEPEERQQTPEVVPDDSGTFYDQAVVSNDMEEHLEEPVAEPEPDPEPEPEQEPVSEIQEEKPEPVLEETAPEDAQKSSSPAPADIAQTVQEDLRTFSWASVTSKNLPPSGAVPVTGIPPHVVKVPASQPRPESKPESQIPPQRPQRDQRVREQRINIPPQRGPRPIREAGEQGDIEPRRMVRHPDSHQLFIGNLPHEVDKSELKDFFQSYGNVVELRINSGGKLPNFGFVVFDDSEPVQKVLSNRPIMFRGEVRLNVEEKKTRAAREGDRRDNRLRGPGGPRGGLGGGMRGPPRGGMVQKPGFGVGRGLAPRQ"}
{"Oligonucleotide": "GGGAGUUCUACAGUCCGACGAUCAAGUCCUGUGCUACACAUCGUAUGUACCGAAUCGGGGUUUGGUUUGGGGUUUGGGGAAAGUAUUAUGUUACGCCGUUCGGAUCUGCACUUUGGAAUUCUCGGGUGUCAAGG", "log2 enrichment": -0.0186}
{"Oligonucleotide": "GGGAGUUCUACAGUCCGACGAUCGUCCUGUGCUACACAUCGUAUGUACCGAAUCGGGGUUUUUGGGUUUUUGGGUUUUUGGGAAAGUAUUAUGUUACGCCGUUCGGAUCUGCAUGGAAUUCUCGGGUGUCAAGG", "log2 enrichment": -0.296}
{"Oligonucleotide": "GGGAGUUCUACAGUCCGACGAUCGCAGGAAGUAAAAACAAAUGGAAAUGCUUCGGAUAGUGGCAGGGGUGGGGGUUGCUAAGGAAAGGGUGGGAUGGGAGUGGGUAAAGAUUUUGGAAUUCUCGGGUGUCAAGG", "log2 enrichment": 1.02}
{"Oligonucleotide": "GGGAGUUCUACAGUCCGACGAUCAGUCCUGUGCUACACAUCGUAUGUACCGAAUCGGGGUUUUUUUGGGGUGGGGAGGGGAAAGUAUUAUGUUACGCCGUUCGGAUCUGCACUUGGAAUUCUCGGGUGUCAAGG", "log2 enrichment": 0.756}
{"Oligonucleotide": "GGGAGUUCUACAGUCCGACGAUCAAGUCCUGUGCUACACAUCGUAUGUACCGAAUCGGGAAAGGGUGGGUUUUUUUGGGAAAGUAUUAUGUUACGCCGUUCGGAUCUGCACUUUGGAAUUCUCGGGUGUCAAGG", "log2 enrichment": 0.258}
{"data": "Other studies, line by line"}
{"Molecule": "PhoQ, residues 284 288 289 292 302 303 SVHLDV", "target": "PhoP, residues 12 14 15 18 19 TPWLV (Escherichia coli, UniProt P23836)", "test": "Sort-seq, refers to: YFP reporter", "test system": "E. coli", "setting": "PhoQ-PhoP variant library, added: 10 µM Mg2+", "how to read": "baseline: high Mg2+ state, higher = stronger signaling", "measurement": "fold induction", "value": 7.35}
{"note": "Some of these lines once more (series 2):"}
{"Oligonucleotide": "CGGGACCG", "E-score": -0.351}
